Assay results gathered from unrelated publications.
Protocols differ between the studies behind these lines. “And” joins repeats or separate records; there may be more than shown. Numbers after ± are the reported error.
BRAP ZnF-UBD domain: BRCA1-associated protein, ZnF-UBD domain (BRAP, Homo sapiens, UniProt Q7Z569)
Chain of UniProt Q7Z569 (whole entry, looked up): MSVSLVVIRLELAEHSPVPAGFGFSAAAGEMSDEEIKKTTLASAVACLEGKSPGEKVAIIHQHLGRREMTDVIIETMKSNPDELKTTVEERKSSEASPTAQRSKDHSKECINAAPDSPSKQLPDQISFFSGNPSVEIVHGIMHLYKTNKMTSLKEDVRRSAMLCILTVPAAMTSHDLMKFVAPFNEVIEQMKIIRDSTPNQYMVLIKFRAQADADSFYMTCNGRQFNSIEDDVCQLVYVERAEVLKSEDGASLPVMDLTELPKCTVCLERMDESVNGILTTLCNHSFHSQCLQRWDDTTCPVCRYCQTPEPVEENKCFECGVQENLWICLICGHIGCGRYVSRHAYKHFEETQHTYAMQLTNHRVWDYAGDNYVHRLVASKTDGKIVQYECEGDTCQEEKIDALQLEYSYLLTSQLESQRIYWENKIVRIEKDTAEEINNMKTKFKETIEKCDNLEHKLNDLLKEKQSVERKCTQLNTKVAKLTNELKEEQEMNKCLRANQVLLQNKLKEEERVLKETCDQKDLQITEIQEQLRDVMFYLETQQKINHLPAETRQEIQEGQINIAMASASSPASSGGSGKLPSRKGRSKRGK
PIKFYVE: 1-phosphatidylinositol 3-phosphate 5-kinase (PIKFYVE, Homo sapiens, UniProt Q9Y2I7)
Chain of UniProt Q9Y2I7 (whole entry, looked up): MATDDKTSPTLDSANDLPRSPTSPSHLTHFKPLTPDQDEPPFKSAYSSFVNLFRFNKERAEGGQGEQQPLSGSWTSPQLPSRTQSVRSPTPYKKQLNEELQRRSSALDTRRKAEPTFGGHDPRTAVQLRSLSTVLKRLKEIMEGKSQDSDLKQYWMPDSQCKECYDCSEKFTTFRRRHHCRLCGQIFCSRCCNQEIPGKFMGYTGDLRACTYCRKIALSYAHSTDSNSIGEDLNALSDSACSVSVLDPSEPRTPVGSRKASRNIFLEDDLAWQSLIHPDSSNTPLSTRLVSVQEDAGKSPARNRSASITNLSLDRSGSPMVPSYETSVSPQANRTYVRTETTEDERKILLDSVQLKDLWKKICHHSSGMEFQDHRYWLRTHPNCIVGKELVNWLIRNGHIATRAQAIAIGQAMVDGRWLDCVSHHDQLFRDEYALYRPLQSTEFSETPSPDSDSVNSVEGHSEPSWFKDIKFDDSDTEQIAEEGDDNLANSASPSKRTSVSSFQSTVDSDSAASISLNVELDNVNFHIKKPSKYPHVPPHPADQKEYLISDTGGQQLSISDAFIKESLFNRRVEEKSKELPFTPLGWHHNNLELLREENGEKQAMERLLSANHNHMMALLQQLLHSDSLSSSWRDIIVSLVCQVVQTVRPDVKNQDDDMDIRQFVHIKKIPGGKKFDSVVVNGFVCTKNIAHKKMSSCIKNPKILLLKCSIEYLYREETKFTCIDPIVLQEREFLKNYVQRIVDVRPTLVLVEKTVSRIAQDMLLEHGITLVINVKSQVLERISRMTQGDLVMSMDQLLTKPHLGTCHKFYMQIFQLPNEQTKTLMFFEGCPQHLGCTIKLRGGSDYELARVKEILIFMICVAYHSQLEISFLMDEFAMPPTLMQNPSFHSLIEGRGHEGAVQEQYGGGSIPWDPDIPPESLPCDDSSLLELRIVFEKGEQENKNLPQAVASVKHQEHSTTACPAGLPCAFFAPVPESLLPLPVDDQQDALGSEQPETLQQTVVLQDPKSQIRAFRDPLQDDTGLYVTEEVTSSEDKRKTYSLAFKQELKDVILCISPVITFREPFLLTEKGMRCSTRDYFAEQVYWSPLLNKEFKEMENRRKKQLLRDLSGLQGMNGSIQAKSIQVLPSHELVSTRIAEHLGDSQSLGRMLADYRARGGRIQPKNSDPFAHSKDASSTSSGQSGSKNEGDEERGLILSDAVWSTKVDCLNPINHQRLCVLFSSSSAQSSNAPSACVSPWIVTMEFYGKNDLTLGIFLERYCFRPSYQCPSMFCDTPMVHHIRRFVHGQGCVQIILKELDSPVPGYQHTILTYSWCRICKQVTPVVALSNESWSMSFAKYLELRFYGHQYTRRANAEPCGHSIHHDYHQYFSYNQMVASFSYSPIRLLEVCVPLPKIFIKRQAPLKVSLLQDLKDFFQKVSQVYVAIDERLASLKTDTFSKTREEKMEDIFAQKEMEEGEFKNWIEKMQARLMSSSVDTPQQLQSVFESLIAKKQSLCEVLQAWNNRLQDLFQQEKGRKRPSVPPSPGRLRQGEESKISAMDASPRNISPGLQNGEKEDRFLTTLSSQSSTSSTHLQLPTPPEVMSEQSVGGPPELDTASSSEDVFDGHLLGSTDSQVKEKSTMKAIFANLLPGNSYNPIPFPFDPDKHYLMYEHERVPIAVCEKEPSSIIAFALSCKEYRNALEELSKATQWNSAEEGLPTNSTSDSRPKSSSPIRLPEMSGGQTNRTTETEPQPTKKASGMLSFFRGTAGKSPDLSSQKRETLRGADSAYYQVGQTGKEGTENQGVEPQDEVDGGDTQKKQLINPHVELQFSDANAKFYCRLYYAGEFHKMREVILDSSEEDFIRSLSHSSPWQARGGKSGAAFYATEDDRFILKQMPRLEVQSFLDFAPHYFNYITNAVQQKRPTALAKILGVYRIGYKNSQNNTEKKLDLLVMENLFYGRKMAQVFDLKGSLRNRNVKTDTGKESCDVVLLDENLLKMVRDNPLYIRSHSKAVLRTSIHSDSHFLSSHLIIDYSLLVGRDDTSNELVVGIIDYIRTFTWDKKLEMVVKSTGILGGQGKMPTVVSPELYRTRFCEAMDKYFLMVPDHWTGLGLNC
SULT2A1: Sulfotransferase 2A1 (SULT2A1, Homo sapiens, UniProt Q06520)
Chain of UniProt Q06520 (whole entry, looked up): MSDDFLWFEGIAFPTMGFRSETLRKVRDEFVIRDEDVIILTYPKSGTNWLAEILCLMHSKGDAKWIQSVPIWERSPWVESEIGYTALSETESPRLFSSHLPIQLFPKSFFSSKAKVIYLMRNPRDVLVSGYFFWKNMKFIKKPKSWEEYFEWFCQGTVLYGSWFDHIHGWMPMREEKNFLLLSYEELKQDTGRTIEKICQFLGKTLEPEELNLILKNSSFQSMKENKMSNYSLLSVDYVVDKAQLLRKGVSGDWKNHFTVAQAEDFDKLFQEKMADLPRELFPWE
HDAC4: Histone deacetylase 4 (HDAC4, Homo sapiens, UniProt P56524)
Chain of UniProt P56524 (whole entry, looked up): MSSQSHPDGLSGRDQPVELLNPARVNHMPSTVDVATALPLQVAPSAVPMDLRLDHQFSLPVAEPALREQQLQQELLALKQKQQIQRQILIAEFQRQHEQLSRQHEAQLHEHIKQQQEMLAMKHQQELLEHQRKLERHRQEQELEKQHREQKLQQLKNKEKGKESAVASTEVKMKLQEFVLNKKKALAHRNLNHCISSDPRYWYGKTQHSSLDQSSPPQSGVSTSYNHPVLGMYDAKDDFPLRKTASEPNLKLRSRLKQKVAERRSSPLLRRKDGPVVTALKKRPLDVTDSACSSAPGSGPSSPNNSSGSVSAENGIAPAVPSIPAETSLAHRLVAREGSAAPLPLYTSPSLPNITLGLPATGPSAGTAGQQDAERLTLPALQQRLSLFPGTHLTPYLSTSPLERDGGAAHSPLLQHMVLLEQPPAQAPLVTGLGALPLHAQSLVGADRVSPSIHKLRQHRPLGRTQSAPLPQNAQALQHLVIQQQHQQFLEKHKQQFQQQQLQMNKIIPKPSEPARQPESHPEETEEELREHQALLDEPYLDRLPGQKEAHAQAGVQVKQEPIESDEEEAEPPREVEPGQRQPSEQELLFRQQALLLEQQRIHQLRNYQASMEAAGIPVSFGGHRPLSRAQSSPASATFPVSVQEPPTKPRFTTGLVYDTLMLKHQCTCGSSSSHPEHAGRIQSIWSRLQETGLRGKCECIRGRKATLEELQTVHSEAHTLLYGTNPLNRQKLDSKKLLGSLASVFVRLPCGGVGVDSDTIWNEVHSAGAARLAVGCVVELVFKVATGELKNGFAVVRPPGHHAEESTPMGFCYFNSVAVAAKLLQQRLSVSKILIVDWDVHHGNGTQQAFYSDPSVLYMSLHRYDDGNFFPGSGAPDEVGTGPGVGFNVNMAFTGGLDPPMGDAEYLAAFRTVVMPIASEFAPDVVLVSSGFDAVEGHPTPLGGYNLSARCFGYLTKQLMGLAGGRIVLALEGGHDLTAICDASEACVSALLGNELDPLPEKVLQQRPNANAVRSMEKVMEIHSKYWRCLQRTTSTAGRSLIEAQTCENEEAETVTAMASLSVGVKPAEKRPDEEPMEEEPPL
Chain of UniProt A2RJT9 (whole entry, looked up): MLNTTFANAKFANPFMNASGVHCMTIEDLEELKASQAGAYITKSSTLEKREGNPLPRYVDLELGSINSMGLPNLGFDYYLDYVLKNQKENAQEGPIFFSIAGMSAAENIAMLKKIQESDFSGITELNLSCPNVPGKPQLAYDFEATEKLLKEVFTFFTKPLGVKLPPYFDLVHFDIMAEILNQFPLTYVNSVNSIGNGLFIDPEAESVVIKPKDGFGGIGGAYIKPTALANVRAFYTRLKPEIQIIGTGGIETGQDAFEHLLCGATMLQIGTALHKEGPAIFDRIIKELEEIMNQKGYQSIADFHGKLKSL
Chain of UniProt P53341 (whole entry, looked up): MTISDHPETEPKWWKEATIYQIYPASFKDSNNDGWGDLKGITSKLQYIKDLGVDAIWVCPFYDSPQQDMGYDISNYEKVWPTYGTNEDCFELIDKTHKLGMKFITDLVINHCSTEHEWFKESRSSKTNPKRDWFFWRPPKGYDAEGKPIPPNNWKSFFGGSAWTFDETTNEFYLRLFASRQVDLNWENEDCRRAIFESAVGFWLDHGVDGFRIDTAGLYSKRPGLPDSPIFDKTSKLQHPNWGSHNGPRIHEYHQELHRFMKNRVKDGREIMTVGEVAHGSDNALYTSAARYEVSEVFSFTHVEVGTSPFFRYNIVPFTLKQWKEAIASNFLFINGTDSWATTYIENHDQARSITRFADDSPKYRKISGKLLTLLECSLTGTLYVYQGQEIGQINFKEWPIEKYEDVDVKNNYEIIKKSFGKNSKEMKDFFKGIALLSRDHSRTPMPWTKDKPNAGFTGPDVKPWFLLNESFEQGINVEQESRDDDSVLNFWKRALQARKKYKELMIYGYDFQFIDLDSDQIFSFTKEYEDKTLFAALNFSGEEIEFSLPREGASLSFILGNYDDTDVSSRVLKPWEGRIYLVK

SMILES = O=C(O)CCn1cnc2ccccc21; target = BRAP ZnF-UBD domain; Kd = > 1000 µM
SMILES = Nc1ncnc2c1ncn2[C@@H]1O[C@@H]2COP(=O)(O)O[C@@H]3[C@H](O)[C@@H](COP(=O)(O)O[C@H]2[C@H]1O)O[C@H]3n1cnc2c(N)ncnc21; target = STING1 (Homo sapiens, UniProt Q86WV6, R220H); test = binding; Kd = 4.98 ± 0.82 µM
SMILES = O=C(O)CNc1ncnc2ccccc12; target = BRAP ZnF-UBD domain; Kd = > 1000 µM
SMILES = CC[C@H](C)[C@H](NC(=O)[C@H](CC(C)C)NC(=O)[C@H](Cc1ccc(OP(=O)(O)O)cc1)NC(=O)[C@H](CCC(=O)O)NC(=O)[C@H](CC(=O)O)NC(=O)[C@H](C)NC(=O)[C@H](CC(=O)O)NC(=O)[C@@H](NC(=O)[C@@H](NC(=O)[C@H](CC(=O)O)NC(=O)[C@H](CC(=O)O)NC(=O)[C@H](CCSC)NC(=O)c1ccc2c(c1)C(=O)OC21c2ccc(N(C)C)cc2Oc2cc(N(C)C)ccc21)C(C)C)C(C)C)C(=O)N1CCC[C@H]1C(=O)N[C@@H](CCC(N)=O)C(=O)N[C@@H](CCC(N)=O)C(=O)NCC(=O)N[C@@H](Cc1ccccc1)C(=O)N[C@@H](CC(=O)O)C(=O)O; target = Proto-oncogene vav, SH2 domain (Homo sapiens, UniProt P15498); test = binding; Kd = 1.05 µM
SMILES = O=C(O)Cc1nc2ccccc2o1; target = BRAP ZnF-UBD domain; Kd = > 1000 µM
SMILES = C#Cc1c(F)ccc2cc(O)cc(-c3ncc4c(N5CC6CCC(C5)N6)nc(OC[C@@]56CCCN5C[C@H](F)C6)nc4c3F)c12; target = GTPase NRas, GDP-bound (NRAS, Homo sapiens, UniProt P01111); test = SPR; Kd = 10.9 µM
SMILES = CCCN1CCN(c2ccc(-c3cncc(Cl)c3N3CCC4(CCNC4=O)CC3)cc2)CC1; target = PIKFYVE; test = SILAC displacement; system = LS174T-L5 cell lysate; Kd = 0.465 µM
SMILES = O=C(O)CNC(=O)c1ccc(C(=O)N2CCC(c3ccc(Cl)cc3)CC2)cn1; target = BRAP ZnF-UBD domain; Kd = 537 µM
SMILES = CC(C)(COP(=O)(O)OP(=O)(O)OC[C@H]1O[C@@H](n2cnc3c(N)ncnc32)[C@H](O)[C@@H]1OP(=O)(O)O)[C@@H](O)C(=O)NCCC(=O)NCCS; target = Ethylmalonyl-CoA decarboxylase (ECHDC1, Homo sapiens, UniProt Q9NTX5); test = competitor, competition MS pulldown; system = SW-620 cell lysate; conditions = added: photo-immobilized beads; Kd = 6.45 µM
SMILES = O=C(O)CSc1nnc(NC(=O)COc2ccccc2)s1; target = BRAP ZnF-UBD domain; Kd = 703 µM
SMILES = Nc1ncnc2c1ncn2[C@@H]1O[C@H](COP(=O)(O)OS(=O)(=O)O)[C@@H](OP(=O)(O)O)[C@H]1O; target = SULT2A1; test = intrinsic fluorescence titration; conditions = pH 7.4, without DHEA; Kd = 0.26 ± 0.04 µM
SMILES = CCCCOc1ccc(CC(=O)NO)cc1; target = HDAC4; test = inhibitor, competition pulldown; system = SW620 and MV4-11 lysate; conditions = 1 h; Kd = > 30.2 µM
SMILES = Nc1ncnc2c1ncn2[C@@H]1O[C@H](COP(=O)(O)OP(=O)(O)OP(=O)(O)O)[C@@H](O)[C@H]1O; target = CKMT1A (Homo sapiens, UniProt P12532, E264A); test = microscale thermophoresis; conditions = pH 8.5, E226A mutant, no substrate; Kd = 18 ± 4 µM
SMILES = NCCS(=O)(=O)O; target = SLC6A6 (Homo sapiens, UniProt P31641, F300A); test = microscale thermophoresis; conditions = F300A mutant; Kd = 657 ± 804 µM
SMILES = CSc1nc(C)c(CCC(=O)O)c(=O)[nH]1; target = BRAP ZnF-UBD domain; Kd = > 1000 µM
SMILES = C[C@]12CC[C@H](O)CC1=CC[C@@H]1[C@@H]2CC[C@]2(C)C(=O)CC[C@@H]12; target = SULT2A1; test = intrinsic protein fluorescence titration; conditions = pH 7.4, without PAP; Kd = 0.28 ± 0.02 µM
SMILES = CCCN1CCN(c2cccc(-c3cnccc3N3CCCC4(CCNC4=O)C3)c2)CC1 (centres unmarked); target = PIKFYVE; test = SILAC displacement; system = LS174T-L5 cell lysate; Kd = 0.012 µM
SMILES = Nc1nc2c(ncn2[C@@H]2O[C@H](COP(=O)(O)O)[C@@H](O)[C@H]2O)c(=O)[nH]1; target = GUK1 (Homo sapiens, UniProt Q16774, D103A); test = binding, ITC; conditions = 25 °C, added: GMP; Kd = 95 ± 2 µM
SMILES = Cn1cc(-c2ccc(S(=O)(=O)n3ccc(/C=C/C(=O)Nc4ccccc4N)c3)cc2)cn1; target = HDAC4; test = inhibitor, competition pulldown; system = SW620 and MV4-11 lysate; conditions = 1 h; Kd = > 30.2 µM
SMILES = C=CC1=C(C)C2=Cc3c(C=C)c(C)c4[n]3[Fe]([Cl])[n]3c(c(C)c(CCC(=O)O)c3=CC3=NC(=C4)C(C)=C3CCC(=O)O)=CC1=N2; target = 5-aminolevulinate synthase, erythroid-specific, mitochondrial, N-terminal truncation (Human, UniProt P22557); test = binding; Kd = 0.589 µM
SMILES = Nc1nc2c(ncn2[C@@H]2O[C@H](COP(=O)(O)OP(=O)(O)OP(=O)(O)O)[C@@H](O)[C@H]2O)c(=O)[nH]1; target = GTP-binding protein gtr1, with Gtr2 (gtr1, Schizosaccharomyces pombe, UniProt O74824); test = UV crosslinking titration; conditions = 4 °C; Kd = 0.014 µM
SMILES = N#Cc1c2n(c3c(=O)n(CC(=O)O)cnc13)CCCC2; target = BRAP ZnF-UBD domain; Kd = 215 µM
SMILES = O=C1CC(C(=O)O)NC(=O)N1 (centres unmarked); target = Dihydroorotate dehydrogenase A (fumarate) (pyrDA, Lactococcus lactis subsp. cremoris, UniProt A2RJT9); test = binding, stopped-flow; system = Lactococcus lactis, wild-type; Kd = 145 ± 54 µM
SMILES = C[C@@H]1C[C@H]2O[C@@H]2/C=C\C=C\C(=O)Cc2c(Cl)c(O)cc(O)c2C(=O)O1; target = TGFBR2 (Homo sapiens, UniProt P37173); test = competition binding; conditions = 11-point threefold dilution; Kd = > 10 µM
SMILES = C[C@H](N)C(=O)N[C@@H](CCCCNC(=O)CCCCC(=O)NCCCC[C@H](NC(=O)[C@H](C)N)C(=O)N1CCC[C@H]1C(=O)N[C@@H](Cc1ccccc1)C(=O)N[C@H](CCCCNC(=O)c1ccc2c(c1)C(=O)OC21c2ccc(O)cc2Oc2cc(O)ccc21)C(N)=O)C(=O)N1CCC[C@H]1C(=O)N[C@@H](Cc1ccccc1)C(N)=O; target = Baculoviral IAP repeat-containing protein 3, BIR3 domain (BIRC3, Homo sapiens, UniProt Q13489); test = binding, fluorescence polarisation; conditions = added: tracer 1 nM; Kd = 0.0019 ± 0.001 µM
SMILES = Nc1nc(-c2ccc(Cl)c(S(N)(=O)=O)c2)cs1; target = CA5A (Homo sapiens, UniProt P35218); test = thermal shift; conditions = pH 7.0, 25 °C; Kd = 0.67 µM
SMILES = O=C(O)Cc1c[nH]c2ccccc12; target = Receptor protein kinase TMK1, extracellular domain (TMK1, Arabidopsis thaliana, UniProt P43298); test = binding, microscale thermophoresis; conditions = HA-tagged protein from protoplasts; Kd = 1.82 µM
SMILES = Nc1ncnc2c1ncn2[C@@H]1O[C@@H]2COP(=O)(O)O[C@H]3[C@@H](O)[C@H](n4cnc5c(N)ncnc54)O[C@@H]3COP(=O)(O)O[C@H]2[C@H]1O; target = uncharacterized protein (Thermoanaerobacter brockii, UniProt E8USF0); Kd = 20.1 ± 3.4 µM
SMILES = COc1cc(O)c2c(c1)oc(=O)c1c3cc(O)c(O)cc3oc21; target = MAL12 (Saccharomyces cerevisiae S288c, UniProt P53341); test = fluorescence quenching; conditions = 310 K; Kd = 13.6 µM
SMILES = Cc1cc2nc3c(=O)[nH]c(=O)nc-3n(C[C@H](O)[C@H](O)[C@H](O)COP(=O)(O)OP(=O)(O)OC[C@H]3O[C@@H](n4cnc5c(N)ncnc54)[C@H](O)[C@@H]3O)c2cc1C; target = Latent-transforming growth factor beta-binding protein 4 (LTBP4, Homo sapiens, UniProt Q8N2S1); test = binding, MS pulldown competition; system = SW-620 cell lysate; Kd = 0.116 µM
SMILES = O=C(O)CC(=O)C(=O)O; target = Uncharacterized protein (Pelagibacter ubique, UniProt Q4FKX4); test = isothermal titration calorimetry; system = Candidatus Pelagibacter ubique; Kd = 0.0124 µM and 0.00687 µM
SMILES = O=C(O)CCn1sc2ccccc2c1=O; target = BRAP ZnF-UBD domain; Kd = > 1000 µM
SMILES = C/C=C1\NC(=O)[C@H]2CSSCC/C=C/[C@H](CC(=O)N[C@H](C(C)C)C(=O)N2)OC(=O)[C@H](C(C)C)NC1=O; target = HDAC4; test = inhibitor, competition pulldown; system = SW620 and MV4-11 lysate; conditions = 1 h; Kd = 0.101 µM
SMILES = Nc1ncnc2c1ncn2[C@@H]1O[C@H](COP(=O)(O)OP(=O)(O)O)[C@@H](O)[C@H]1O; target = CKMT1A (Homo sapiens, UniProt P12532); test = microscale thermophoresis; conditions = pH 8.5, wild type, no substrate; Kd = 114 ± 85 µM
SMILES = COc1cc(Nc2ncc3c(n2)-c2ccc(Cl)cc2C(c2c(F)cccc2OC)=NC3)ccc1C(=O)NCCOCCOCCNC(=O)COc1cccc2c1C(=O)N(C1CCC(=O)NC1=O)C2=O (centres unmarked); target = Aurora kinase B (AURKB, Homo sapiens, UniProt Q96GD4); test = binding, kinobead competition; system = MV4-11 cell lysate; Kd = 5.1 µM
